# Measurements gathered from unrelated publications.
# ± gives the spread as reported.
SMILES,assay,test system,setting,quantity,result
CCn1c(=O)c(-c2cc(NC(=O)Nc3ccccc3)c(F)cc2Br)cc2cnc(N)cc21,"plasma protein binding, ultracentrifugation","human subjects with hepatic impairment, plasma",24 h post-dose,unbound fraction,0.2 to 1.4%
O=[N+]([O-])c1cn2c(n1)OC[C@@H](OCc1ccc(OC(F)(F)F)cc1)C2,,human,,unbound fraction,0.07
N#Cc1ccc(C(c2ccc(C#N)cc2)n2cncn2)cc1,,"human patients, plasma","oral, 10 mg daily",unbound Cmax at steady state,740 ± 230 nM
CO[C@H]1/C=C/O[C@@]2(C)Oc3c(C)c(O)c4c(O)c(c5c(nc6cc(C)ccn65)c4c3C2=O)NC(=O)/C(C)=C\C=C\[C@H](C)[C@H](O)[C@@H](C)[C@@H](O)[C@@H](C)[C@H](OC(C)=O)[C@@H]1C,,"human, plasma",200 mg,unbound Cmax,0.813 nM
CCS(=O)(=O)N1CC(CC#N)(n2cc(-c3ncnc4[nH]ccc34)cn2)C1,,"human, plasma","oral, dose not given",unbound Cmax,72 nM
C#C[C@]1(O)CC[C@H]2[C@@H]3CCC4=CC(=NO)CC[C@@H]4[C@H]3CC[C@@]21CC (mixture of isomers),,"human, plasma",,unbound fraction,0.0104
CNC(=O)c1ccc(-c2cnc3ncc(Cc4ccc5ncccc5c4)n3n2)cc1F,,human mild hepatic impairment,"oral, 200 mg single dose, adjusted geometric mean",unbound AUC(0-t),146 ng·h/mL
CC#CC(=O)N1CCC[C@H]1c1nc(-c2ccc(C(=O)Nc3ccccn3)cc2)c2c(N)nccn12,noncompartmental analysis,"human, severe impairment, plasma","oral, 50 mg, geometric mean",unbound Cmax,4.4 ng/mL
Cn1cncc1[C@@](N)(c1ccc(Cl)cc1)c1ccc2c(c1)c(-c1cccc(Cl)c1)cc(=O)n2C,,"healthy human, plasma",,unbound fraction,0.0078
Cn1cnc2c(F)c(Nc3ccc(Br)cc3F)c(C(=O)NOCCO)cc21,,"human, plasma",30 mg,unbound Cmax,19.9 nM
CCn1c(=O)c(-c2cc(NC(=O)Nc3ccccc3)c(F)cc2Br)cc2cnc(NC)cc21,"plasma protein binding, ultracentrifugation","healthy human subjects, plasma","oral, 50 mg, 24 h post-dose",unbound fraction,≤ 0.6%
Cn1c(Cn2ccc(C(F)(F)F)c(Oc3cc(Cl)cc(C#N)c3)c2=O)n[nH]c1=O,,"human, plasma",120 mg,unbound Cmax,651 nM
O=C1COCCN1c1ccc(CO[C@@H]2COc3nc([N+](=O)[O-])cn3C2)cn1,,human,,unbound fraction,> 0.7
NC[C@@]1(CC(=O)O)[C@@H]2CC[C@H]3C[C@@H]2[C@@H]1C3,,"human, severe renal impairment, plasma","dose not given, geometric mean",unbound apparent volume of distribution,54.3 L
C[C@H]1CN(C(=O)CC#N)[C@]12CCN(c1ncnc3[nH]ccc13)C2,,human,,unbound fraction,~0.75
N[C@@H]1c2cccnc2[C@H](OC(=O)N2CCC(n3c(=O)[nH]c4ncccc43)CC2)CC[C@H]1c1cccc(F)c1F,,"human, plasma","oral, 75 mg",unbound Cmax,48 nM
CO[C@H]1C[C@@H]2CC[C@@H](C)[C@@](O)(O2)C(=O)C(=O)N2CCCC[C@H]2C(=O)O[C@H]([C@H](C)C[C@@H]2CC[C@@H](OC(=O)NCCOCCOCCOCCOCCOCCOCCOCCOCCC(=O)N3CCc4cc(Cn5nc(-c6ccc7oc(N)nc7c6)c6c(N)ncnc65)ccc4C3)[C@H](OC)C2)C[C@@H](O)[C@H](C)/C=C(\C)[C@@H](O)[C@@H](OC)C(=O)[C@H](C)C[C@H](C)/C=C/C=C/C=C/1C,,"human, plasma","intravenous, 10 mg, Cycle 1 Day 15, 1 h infusion",unbound Cmax,16.2 nM
CCO[C@H]1CCN(Cc2c(OC)cc(C)c3[nH]ccc23)[C@H](c2ccc(C(=O)O)cc2)C1,,"human mild hepatic impairment, plasma","oral, 200 mg single dose, median",unbound AUC0–12,4790 ng·h/mL
